Results of several laboratories.
Protocols differ between the studies behind these lines. Several values in a cell are separate wells, animals, samples, runs or records. ± marks the error that the study gave.
Chain of UniProt Q8IU85 (whole entry, looked up): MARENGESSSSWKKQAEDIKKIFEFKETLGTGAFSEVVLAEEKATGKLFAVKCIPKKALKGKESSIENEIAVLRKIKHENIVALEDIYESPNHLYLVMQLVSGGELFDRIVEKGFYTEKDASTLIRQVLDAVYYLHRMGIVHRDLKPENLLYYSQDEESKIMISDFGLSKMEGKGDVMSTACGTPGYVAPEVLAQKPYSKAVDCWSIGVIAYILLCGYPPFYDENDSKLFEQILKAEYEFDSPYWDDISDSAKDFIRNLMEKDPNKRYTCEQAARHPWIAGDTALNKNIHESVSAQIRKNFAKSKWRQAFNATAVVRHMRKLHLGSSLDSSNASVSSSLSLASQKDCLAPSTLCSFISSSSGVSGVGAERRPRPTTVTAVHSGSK

CN1CCC(N[C@@H]2CCc3[nH]c4c(C(N)=O)ccc(-c5ccccc5Cl)c4c3C2)CC1  IC50 (BGC-823; cell growth or viability): 0.00894 µM
C=CC(=O)Nc1cccc(Cn2ncc3cnc(Nc4cnn(CCOC)c4)nc32)c1  percent of control (MUSK human; binding, KINOMEscan; 100 nM; lower = stronger binding): 94%
CC(C)=CC1OC(C)(C)C2C=C3C(=O)C(Cl)=CC(O)C3C3C(O)C4OC4C(=O)C132 (stereo not drawn)  IC50 (JeKo-1; cell growth or viability, MTS): 0.75 µM
CC[C@H]1CC[C@H]2[C@@H]3C[C@@H](O)[C@@]4(O)C[C@H](N)CC[C@]4(C)[C@H]3CC[C@]12C  IC50 (HMC3; nuclear intensity, high-content imaging; geometric mean): 1.04 µM
COC1CN([C@H]2CC[C@H]([C@@]3(C)Oc4c(Cl)cc(C(=O)NCc5c(SC)cc(C)[nH]c5=O)c(C)c4O3)CC2)C1  log2 fold change (RNA-seq, measured: CD276 mouse homolog; mouse, HT-1376 xenograft, whole blood; dose not given; relative to: vehicle): 0.659
COc1ccc2c(c1)OC1=C(C(=O)CC(C)(C)C1)C2C1=C(O)CC(C)(C)CC1=O (stereo not drawn)  IC50 (3T3-L1; cell growth or viability, MTT; 72 h): 74 µg/mL
COC(=O)N1c2ccc3c(nc(Cc4ccccc4)n3[C@@H]3CCC[C@@H](C(=O)O)C3)c2CC[C@@H]1C  IC50 (UACC-893; cell growth or viability, ATP luminescence; 10 days): 0.26 µM
CCOc1cncc(-c2ccc(NC(=O)C3(c4ccnc(NS(=O)(=O)C5CC5)n4)CCOCC3)nc2)n1  IC50 (lung cancer; cell viability, CellTiter-Glo; DMSO 0.1%; 72 h, line code 66): 0.044 µM
O=C(CCNc1cccc2c1C(=O)N(C1CCC(=O)NC1=O)C2=O)NCCOCCOCCOCCN1CCC(CNC(=O)c2cccc(-c3noc(C(F)(F)F)n3)c2)(c2nc(-c3ccccc3)cs2)CC1 (stereo not drawn)  IC50 (JeKo-1; cell growth or viability; 7 days): 2.27 µM
Cc1ncsc1-c1ccc(C(C)NC(=O)C2CC(O)CN2C(=O)C(NC(=O)CCCCCCCCCCN2CCCC(Nc3ncc(Cl)c(Nc4ccccc4S(=O)(=O)C(C)C)n3)C2)C(C)(C)C)cc1 (stereo not drawn)  log2 fold change (22Rv1; RNA-seq, measured: TIRAP mRNA; concentration not given; relative to: DMSO): -1.86
CN1CCCNC(=O)c2cccc(c2)C(=O)NCCCN(C)CCCNc2cccc3c2C(=O)c2cccc(c2C3=O)NCCC1  body weight (mouse xenograft model; dose not given, day 6, group mean): 26.1 g
O=C1CCC(N2C(=O)c3ccc(N4CCC(C(=O)N5CCC(CCN6CCC(CNC(=O)c7cccc(-c8noc(C(F)(F)F)n8)c7)(c7nc(-c8ccccc8)cs7)CC6)CC5)CC4)cc3C2=O)C(=O)N1 (stereo not drawn)  IC50 (JeKo-1 CRBN knockout; cell proliferation; 168 h): 1.1 ± 0.0131 µM
CN(C)CCCCCN(C)Cc1cc2ccccc2o1.Cl  translation activity (Trypanosoma cruzi; reporter mRNA translation, inhibitor, measured: Renilla luciferase mRNA; cell-free extract; concentration not given, test 1; relative to: positive over negative control): 100% and 123%
CC(C)c1ccc(N(C)c2ccc3c(c2)OCC[C@H]3CNc2cnccc2C(=O)O)cc1  IC50 (SNU-5; cell growth or viability, ATP luminescence; 7 days): 0.146 µM
CNS(=O)(=O)Nc1nccc(Cc2c(C)c3ccc(Oc4ncccc4F)cc3oc2=O)c1F  IC50 (KLE; cell viability; 7 days): 0.000207 µM
CC(=O)NCCOCCOCCOCCNC(=O)c1cc(C(=O)N2CCNCCNCCNCC2)c(O)c(C(=O)N2CCNCCNCCNCC2)c1  IC50 (PK-59; cell growth or viability, MTT; 24 h): > 1000 µM
CC1(C)CC(=O)C2=C(C1)Oc1cc(O)ccc1C2c1c[nH]c2ccccc12 (stereo not drawn)  IC50 (3T3-L1; cell growth or viability, MTT; 72 h): 25.9 µg/mL
Cn1ncc(-c2ccc3c(=O)[nH]nc(CN)c3c2)c1-c1c(F)c(Cl)cc(OC2CC2)c1C#N  IC50 (NCI-H1648; cell viability, inhibitor, CellTiter-Glo; 120 h, baseline-subtracted): 0.07 µM
COc1ccc(NC(=O)c2ccc3[nH]c(-c4ccc(N(C)C)cc4)nc3c2)cn1  IC50 (YAPC; cell growth, CellTiter-Glo): 5.73 µM
CCCC[C@H](NC(C)=O)C(=O)N[C@@H](CO)C(=O)N[C@H](C(=O)N1CCC[C@H]1C(=O)N[C@]1(C)CCCCCCC=CCCC[C@@](C)(C(=O)N[C@@H](Cc2ccccc2)C(=O)N[C@@H](CCCCN)C(=O)N[C@@H](CCCNC(=N)N)C(=O)N[C@@H](CC(C)C)C(=O)N[C@@H](CCC(N)=O)C(N)=O)NC(=O)[C@H](CCCNC(=N)N)NC(=O)[C@H](CCCC)NC(=O)[C@H](CC(C)C)NC(=O)[C@H](CCCNC(=N)N)NC(=O)[C@H](CCCNC(=N)N)NC(=O)[C@H](CCCNC(=N)N)NC1=O)[C@@H](C)O  remaining peptide (proteinase K; LC-MS; 25 µM, 61.5 min, pH 7.4): 84.9%
O=C(OCc1ccc(O[C@@H]2O[C@H](CO)[C@@H](O)[C@H](O)[C@H]2O)cc1)c1ccc(O)cc1  IC50 (T47D breast cancer; cell viability, MTT; DMEM with 10% FBS; 48 h): > 200 µM
C=CCOc1c(C)c(OC)c(C(=O)/C=C/c2ccccc2)c(OCC=C)c1C  IC50 (FaDu; cell growth or viability, SRB; 72 h): > 50 µM
NCc1ccc2c(c1)CN(C1CCC(=O)NC1=O)C2=O (stereo not drawn)  IC50 (SNU-398; cell growth or viability, ATP luminescence): > 22.8 µM
Clc1ccc2c(c1)N(CCCN1CCN(CCn3cc(CN4CCCNCCN(Cc5cn(CCN6CCN(CCCN7c8ccccc8Sc8ccc(Cl)cc87)CC6)nn5)CCCNCC4)nn3)CC1)c1ccccc1S2  IC50 (SH-SY5Y, differentiated; cell viability; together with: amyloid-beta 42 10 µM): 2.3 µM
CCCCCC(=O)[O][Pt]([Cl])([Cl])[O]C(=O)CCCCC.N.N  IC50 (A549/DDP cisplatin-resistant; MTT; 48 h, together with: survivin siRNA 10 nM transfected 24 h before): 3.05 ± 3.75 µM
O=C(CCC(=O)Nc1ccc(Cl)cc1Cl)N/N=C/c1ccc([N+](=O)[O-])o1  translation activity (Trypanosoma cruzi; reporter mRNA translation, inhibitor, measured: Renilla luciferase mRNA; cell-free extract; concentration not given, test 1; relative to: positive over negative control): 112%
CCCC(=O)Oc1c(C)c(OC)c2c(c1C)OC(=O)[C@@H](CC)[C@]2(O)/C=C/c1ccccc1 (racemic)  IC50 (FaDu; cell growth or viability, SRB; 72 h): > 50 µM
Nc1ncc(-c2cc(-c3cnn(CC(F)(F)F)c3)ncc2F)nc1C(=O)NC1CNCC(F)C1 (stereo not drawn)  remaining binding (ROCK1; KINOMEscan; 1 µM; relative to: DMSO control): 100%
CC1(C)CC(=O)C(C2C3=C(CC(C)(C)CC3=O)Oc3ccc(Cl)cc32)=C(O)C1 (stereo not drawn)  IC50 (3T3-L1; cell growth or viability, MTT; 72 h): 12.4 µg/mL
O=C(O)C(CO)NCc1cc(Cl)c(OCc2cccc(-c3ccccc3)c2Br)cc1OCc1cccnc1 (stereo not drawn)  IC50 (HK-2; cell growth or viability, MTT): > 10 µM
N#Cc1c(N)nc2c(c1-c1cccs1)Cc1cc(O)ccc1-2  IC50 (HBP-ALL; cell viability, CellTiter-Glo; no inhibition at 100 µM): 52.3 µM
C=CC(=O)N1CCCC(n2c(=O)c3ncccc3n(Cc3ccc(Oc4ccccc4)cc3)c2=O)C1 (stereo not drawn)  IC50 (DB; cell proliferation, MTT; 72 h): 0.625 µM
C=CC(=O)N1CCc2ccc(-n3c(=O)ccc4cnc5ccc(-c6cnn(C)c6)cc5c43)cc21  IC50 (CNE2Z; cell growth or viability): 2.71 µM
Cc1nn(-c2cccc(N)c2)c(=O)c2cnc(Nc3ccc(N4CCNCC4)cc3)nc12  IC50 (Calcium/calmodulin-dependent protein kinase type 1D (CAMK1D, Homo sapiens, UniProt Q8IU85); SelectScreen kinase): > 10 µM
CC(C)C[C@](O)(C(=O)OCc1ccc(O[C@@H]2O[C@H](CO)[C@@H](O)[C@H](O)[C@H]2O)cc1)[C@H](O)C(=O)OCc1ccc(O[C@@H]2O[C@H](CO)[C@@H](O)[C@H](O)[C@H]2O)cc1  IC50 (T47D breast cancer; cell viability, MTT; DMEM with 10% FBS; 48 h): > 200 µM
N#Cc1c(N)nc2c(c1-c1ccc(F)cc1)Cc1cc(O)ccc1-2  IC50 (HBP-ALL; cell viability, CellTiter-Glo; no inhibition at 100 µM): 12.3 µM
C=C1C(=O)OC2C1CCC(C)(O)C13C=CC(C)(C21)C1(C3)C(=O)OC2C3C(C)=CCC3C(C)(O)CC(OC(C)=O)C21 (stereo not drawn)  IC50 (AML12; lipid accumulation, Nile Red staining; together with: palmitate/oleate): 6.81 ± 0.48 µM
C=CC(=O)Nc1cc(Nc2nccc(-c3cn(C)c4ccccc34)n2)c(OC)cc1N(C)CCN(C)C  IC50 (Ba/F3 EGFR 19Del/C797S BBT-176-resistant BR1; cell growth; 72 h): > 1 µM
COc1cc(-c2cc(C(C)=O)n3ccccc23)cc(OC)c1Cn1ccnc1  IC50 (Kasumi 1; cell growth or viability, ATP luminescence): 0.23 µM

Some of these lines once more:
C=CC(=O)N1CCCC(n2c(=O)c3ncccc3n(Cc3ccc(Oc4ccccc4)cc3)c2=O)C1 (stereo not drawn)  IC50 (DB; cell proliferation, MTT; 72 h): 0.625 µM
C=CC(=O)N1CCc2ccc(-n3c(=O)ccc4cnc5ccc(-c6cnn(C)c6)cc5c43)cc21  IC50 (CNE2Z; cell growth or viability): 2.71 µM
Cc1nn(-c2cccc(N)c2)c(=O)c2cnc(Nc3ccc(N4CCNCC4)cc3)nc12  IC50 (Calcium/calmodulin-dependent protein kinase type 1D (CAMK1D, Homo sapiens, UniProt Q8IU85); SelectScreen kinase): > 10 µM
CC(C)C[C@](O)(C(=O)OCc1ccc(O[C@@H]2O[C@H](CO)[C@@H](O)[C@H](O)[C@H]2O)cc1)[C@H](O)C(=O)OCc1ccc(O[C@@H]2O[C@H](CO)[C@@H](O)[C@H](O)[C@H]2O)cc1  IC50 (T47D breast cancer; cell viability, MTT; DMEM with 10% FBS; 48 h): > 200 µM
N#Cc1c(N)nc2c(c1-c1ccc(F)cc1)Cc1cc(O)ccc1-2  IC50 (HBP-ALL; cell viability, CellTiter-Glo; no inhibition at 100 µM): 12.3 µM
C=C1C(=O)OC2C1CCC(C)(O)C13C=CC(C)(C21)C1(C3)C(=O)OC2C3C(C)=CCC3C(C)(O)CC(OC(C)=O)C21 (stereo not drawn)  IC50 (AML12; lipid accumulation, Nile Red staining; together with: palmitate/oleate): 6.81 ± 0.48 µM
